Published values from different studies.
Numbered parts are unrelated; each lists some results of a single study.
UniProt P42680, sequence (whole entry, looked up): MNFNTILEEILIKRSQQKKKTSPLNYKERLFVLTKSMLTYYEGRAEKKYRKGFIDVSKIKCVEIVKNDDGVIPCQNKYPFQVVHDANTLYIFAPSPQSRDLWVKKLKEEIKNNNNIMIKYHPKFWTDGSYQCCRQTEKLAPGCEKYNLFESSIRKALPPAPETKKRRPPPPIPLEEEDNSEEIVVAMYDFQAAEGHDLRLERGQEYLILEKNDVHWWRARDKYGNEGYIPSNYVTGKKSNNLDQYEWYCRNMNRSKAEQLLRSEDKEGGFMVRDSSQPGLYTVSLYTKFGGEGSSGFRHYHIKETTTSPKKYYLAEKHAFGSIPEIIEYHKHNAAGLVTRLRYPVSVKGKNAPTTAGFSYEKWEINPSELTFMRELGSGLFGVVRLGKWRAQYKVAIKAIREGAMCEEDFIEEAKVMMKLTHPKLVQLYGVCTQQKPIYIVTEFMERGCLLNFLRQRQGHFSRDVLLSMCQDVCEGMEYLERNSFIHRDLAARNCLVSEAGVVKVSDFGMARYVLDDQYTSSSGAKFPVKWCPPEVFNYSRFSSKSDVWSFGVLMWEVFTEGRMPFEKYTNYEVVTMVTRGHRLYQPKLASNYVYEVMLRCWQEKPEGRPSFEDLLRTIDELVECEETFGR
UniProt P51812, sequence (whole entry, looked up): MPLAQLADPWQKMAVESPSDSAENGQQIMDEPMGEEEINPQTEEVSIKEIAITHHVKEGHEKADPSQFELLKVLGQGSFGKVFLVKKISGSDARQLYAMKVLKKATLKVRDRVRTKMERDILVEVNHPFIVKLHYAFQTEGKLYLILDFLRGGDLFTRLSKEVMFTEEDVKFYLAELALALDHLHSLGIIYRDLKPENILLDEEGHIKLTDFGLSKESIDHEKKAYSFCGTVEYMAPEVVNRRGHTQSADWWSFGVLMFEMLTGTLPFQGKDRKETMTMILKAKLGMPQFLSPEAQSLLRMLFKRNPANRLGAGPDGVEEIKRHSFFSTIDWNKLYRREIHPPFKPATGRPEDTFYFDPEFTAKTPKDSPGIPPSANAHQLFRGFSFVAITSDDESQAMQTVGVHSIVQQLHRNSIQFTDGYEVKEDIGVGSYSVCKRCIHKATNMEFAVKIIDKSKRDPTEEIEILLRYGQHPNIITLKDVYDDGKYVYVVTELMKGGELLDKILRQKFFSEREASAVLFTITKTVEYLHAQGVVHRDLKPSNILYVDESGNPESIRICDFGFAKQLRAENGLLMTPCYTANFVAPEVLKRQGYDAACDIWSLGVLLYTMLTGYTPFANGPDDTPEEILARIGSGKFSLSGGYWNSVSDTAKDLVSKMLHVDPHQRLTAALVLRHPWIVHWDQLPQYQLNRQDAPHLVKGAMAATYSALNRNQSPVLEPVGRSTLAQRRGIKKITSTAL
UniProt P0C264, sequence (whole entry, looked up): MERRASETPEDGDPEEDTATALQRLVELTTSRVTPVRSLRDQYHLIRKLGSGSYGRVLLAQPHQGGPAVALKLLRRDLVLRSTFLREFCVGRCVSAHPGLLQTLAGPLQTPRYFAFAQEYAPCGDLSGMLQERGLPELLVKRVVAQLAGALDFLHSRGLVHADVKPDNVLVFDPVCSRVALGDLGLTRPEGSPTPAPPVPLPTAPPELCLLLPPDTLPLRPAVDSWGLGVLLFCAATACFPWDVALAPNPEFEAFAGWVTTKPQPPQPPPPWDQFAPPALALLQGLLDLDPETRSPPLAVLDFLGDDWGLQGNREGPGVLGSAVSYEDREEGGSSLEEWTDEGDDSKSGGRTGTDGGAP
UniProt Q8IY84, sequence (whole entry, looked up): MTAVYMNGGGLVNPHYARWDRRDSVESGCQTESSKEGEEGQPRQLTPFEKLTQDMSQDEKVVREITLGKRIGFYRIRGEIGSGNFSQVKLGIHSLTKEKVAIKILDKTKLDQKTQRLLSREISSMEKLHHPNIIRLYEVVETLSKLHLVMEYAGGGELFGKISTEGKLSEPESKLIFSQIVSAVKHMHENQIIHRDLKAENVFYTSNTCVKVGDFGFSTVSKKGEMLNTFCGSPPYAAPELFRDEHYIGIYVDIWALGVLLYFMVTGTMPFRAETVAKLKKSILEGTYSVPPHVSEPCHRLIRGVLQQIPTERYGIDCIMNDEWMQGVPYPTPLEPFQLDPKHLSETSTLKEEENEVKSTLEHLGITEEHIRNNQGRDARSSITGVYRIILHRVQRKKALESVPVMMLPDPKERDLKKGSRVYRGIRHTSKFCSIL
UniProt O75914, sequence (whole entry, looked up): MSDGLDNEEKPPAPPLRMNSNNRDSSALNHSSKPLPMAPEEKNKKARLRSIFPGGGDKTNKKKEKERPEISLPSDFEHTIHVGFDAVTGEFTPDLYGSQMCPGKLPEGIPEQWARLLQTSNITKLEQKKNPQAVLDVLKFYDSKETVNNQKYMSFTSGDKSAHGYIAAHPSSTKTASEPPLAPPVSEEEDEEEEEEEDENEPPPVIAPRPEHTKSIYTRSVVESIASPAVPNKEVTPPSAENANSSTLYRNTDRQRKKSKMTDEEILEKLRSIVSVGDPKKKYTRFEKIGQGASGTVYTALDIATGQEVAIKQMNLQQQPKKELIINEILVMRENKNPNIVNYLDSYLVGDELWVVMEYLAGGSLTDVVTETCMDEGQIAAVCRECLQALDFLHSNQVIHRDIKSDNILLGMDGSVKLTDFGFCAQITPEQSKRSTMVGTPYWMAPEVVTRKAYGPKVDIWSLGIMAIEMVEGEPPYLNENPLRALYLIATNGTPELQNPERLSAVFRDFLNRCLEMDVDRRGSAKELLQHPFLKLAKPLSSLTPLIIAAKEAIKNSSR
UniProt P45984, sequence (whole entry, looked up): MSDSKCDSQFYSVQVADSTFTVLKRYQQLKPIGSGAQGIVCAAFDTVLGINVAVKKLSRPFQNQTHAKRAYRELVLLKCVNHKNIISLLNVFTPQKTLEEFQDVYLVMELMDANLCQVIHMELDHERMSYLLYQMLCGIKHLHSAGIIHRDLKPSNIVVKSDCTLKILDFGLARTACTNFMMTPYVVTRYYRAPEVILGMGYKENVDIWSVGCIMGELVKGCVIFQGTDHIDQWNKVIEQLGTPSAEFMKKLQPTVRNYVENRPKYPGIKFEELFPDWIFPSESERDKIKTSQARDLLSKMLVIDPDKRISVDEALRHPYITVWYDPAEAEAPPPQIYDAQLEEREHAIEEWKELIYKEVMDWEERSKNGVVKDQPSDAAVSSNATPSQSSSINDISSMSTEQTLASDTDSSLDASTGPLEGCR
UniProt Q06418, sequence (whole entry, looked up): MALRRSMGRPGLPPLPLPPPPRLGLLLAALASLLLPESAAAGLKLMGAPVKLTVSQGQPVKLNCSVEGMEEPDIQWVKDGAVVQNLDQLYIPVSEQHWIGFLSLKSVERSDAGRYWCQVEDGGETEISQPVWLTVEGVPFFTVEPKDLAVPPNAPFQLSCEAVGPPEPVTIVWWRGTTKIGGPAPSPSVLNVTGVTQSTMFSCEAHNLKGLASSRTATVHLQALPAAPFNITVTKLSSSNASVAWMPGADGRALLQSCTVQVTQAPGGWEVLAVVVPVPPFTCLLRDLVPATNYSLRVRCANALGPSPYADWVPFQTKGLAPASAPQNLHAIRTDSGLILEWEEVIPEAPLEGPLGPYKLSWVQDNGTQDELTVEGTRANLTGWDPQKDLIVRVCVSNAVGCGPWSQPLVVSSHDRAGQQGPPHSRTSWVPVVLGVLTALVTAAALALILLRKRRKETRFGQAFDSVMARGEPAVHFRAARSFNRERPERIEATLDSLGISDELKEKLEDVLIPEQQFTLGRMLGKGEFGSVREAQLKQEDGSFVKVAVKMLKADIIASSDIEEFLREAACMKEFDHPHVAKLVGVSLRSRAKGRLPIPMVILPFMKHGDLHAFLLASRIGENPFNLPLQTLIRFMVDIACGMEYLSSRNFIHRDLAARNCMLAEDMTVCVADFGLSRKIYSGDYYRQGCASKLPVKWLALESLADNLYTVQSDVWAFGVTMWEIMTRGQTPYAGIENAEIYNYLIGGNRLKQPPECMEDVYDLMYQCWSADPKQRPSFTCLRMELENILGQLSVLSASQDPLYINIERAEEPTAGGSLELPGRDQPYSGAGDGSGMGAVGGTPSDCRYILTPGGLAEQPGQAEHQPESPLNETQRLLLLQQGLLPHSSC
UniProt P06241, sequence (whole entry, looked up): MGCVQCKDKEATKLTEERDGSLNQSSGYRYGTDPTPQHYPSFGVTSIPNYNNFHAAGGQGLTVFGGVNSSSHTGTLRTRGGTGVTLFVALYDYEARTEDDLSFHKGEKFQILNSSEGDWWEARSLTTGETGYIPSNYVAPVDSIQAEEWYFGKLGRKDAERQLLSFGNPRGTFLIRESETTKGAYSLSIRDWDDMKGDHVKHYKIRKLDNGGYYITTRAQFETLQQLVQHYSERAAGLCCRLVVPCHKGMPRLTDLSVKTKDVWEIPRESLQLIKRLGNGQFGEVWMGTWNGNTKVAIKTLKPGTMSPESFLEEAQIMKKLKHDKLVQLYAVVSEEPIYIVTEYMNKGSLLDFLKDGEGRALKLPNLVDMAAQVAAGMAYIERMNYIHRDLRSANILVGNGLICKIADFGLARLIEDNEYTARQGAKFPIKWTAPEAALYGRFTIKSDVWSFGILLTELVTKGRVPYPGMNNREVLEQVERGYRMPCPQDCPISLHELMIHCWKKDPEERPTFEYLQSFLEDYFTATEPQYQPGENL

Series 1
Host: human
Medium: microsomes or S9
Concentration: 2 µM
Time: 0.5 h
| Compound | remaining compound [%] |
| --- | --- |
| Cn1cnc2c(sc3nc4c(cc32)COC(C)(C)C4)c1=O | 75.9 |
| Oc1ccc(/C=C/c2c3c(cc4c2[C@H](c2cc(O)cc(O)c2)[C@@H](c2ccc(O)cc2)O4)O[C@H](c2ccc(O)cc2)[C@H]3c2cc(O)cc(O)c2)cc1 | 59.3 |
| CC1CC(C)CC(NC(=O)c2coc(CS(C)(=O)=O)n2)C1 (centres unmarked) | 62.4 |
| Cc1csc(-c2cc(NC(=O)c3ccc(F)cc3F)c(C)s2)n1 | 16.2 |
| Oc1ccc([C@H]2c3c(O)cc(O)cc3[C@@H]3c4c(cc(O)c5c4[C@@H]2[C@@H](c2ccc(O)cc2)[C@@H]5c2cc(O)cc(O)c2)O[C@@H]3c2ccc(O)cc2)cc1 | 77.5 |
| Cc1cc2c(nc1C)sc1c(=O)n(C(C)C)cnc12 | 9.8 |
| COC(=O)c1c(C)n(C(C)=O)c2ccc(NS(=O)(=O)c3cccs3)cc12 | 50.1 |
| Cc1ccc(C2C(C(=O)NC3CCCCC3)CCC(=O)N2C)cc1 (centres unmarked) | 7.66 |
| O=C(Cn1ncc2ccccc2c1=O)NCCn1nc2c(cc1=O)CCCCC2 | 41 |
| Cc1cc2cc[nH]c2cc1NC(=O)Cc1ccc(F)cc1F | 89.4 |

Series 2
SMILES: Cc1nc(Nc2ncc(C(=O)Nc3c(C)cccc3Cl)s2)cc(N2CCN(CCO)CC2)n1
Action: inhibitor
MAPK14: Mitogen-activated protein kinase 14 (MAPK14, Homo sapiens, UniProt Q16539)
UniProt Q16539, sequence (whole entry, looked up): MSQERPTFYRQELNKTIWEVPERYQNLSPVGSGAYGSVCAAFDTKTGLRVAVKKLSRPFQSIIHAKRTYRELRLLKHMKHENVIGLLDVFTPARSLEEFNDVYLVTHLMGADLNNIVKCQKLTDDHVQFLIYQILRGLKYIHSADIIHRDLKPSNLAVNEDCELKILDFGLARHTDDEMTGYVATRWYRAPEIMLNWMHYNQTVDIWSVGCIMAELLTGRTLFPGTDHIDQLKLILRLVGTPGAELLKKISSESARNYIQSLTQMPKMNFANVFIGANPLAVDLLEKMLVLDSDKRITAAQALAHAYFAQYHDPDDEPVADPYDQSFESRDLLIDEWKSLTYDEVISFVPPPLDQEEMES
| target | conditions | inhibition |
| --- | --- | --- |
| MAPK14 | 1 µM | 100% |
| Uncharacterized serine/threonine-protein kinase SBK3 (SBK3, Homo sapiens, UniProt P0C264) | 10 µM | < 50% |
| Ribosomal protein S6 kinase alpha-3, N-terminal kinase domain (RPS6KA3, Homo sapiens, UniProt P51812) | 1 µM | < 50% |
| Serine/threonine-protein kinase DCLK1 (DCLK1, Homo sapiens, UniProt O15075) | 1 µM | < 50% |
| MAPK14 | 10 µM | 100% |
| Tyrosine-protein kinase Tec (TEC, Homo sapiens, UniProt P42680) | 10 µM | 91% |
| Interleukin-1 receptor-associated kinase 3 (IRAK3, Homo sapiens, UniProt Q9Y616) | 10 µM | < 50% |
| Mitogen-activated protein kinase kinase kinase 4 (MAP3K4, Homo sapiens, UniProt Q9Y6R4) | 10 µM | 98% |
| Membrane-associated tyrosine- and threonine-specific cdc2-inhibitory kinase (PKMYT1, Homo sapiens, UniProt Q99640) | 10 µM | 100% |
| MAP/microtubule affinity-regulating kinase 3 (MARK3, Homo sapiens, UniProt P27448) | 10 µM | < 50% |
| Mitogen-activated protein kinase kinase kinase 3 (MAP3K3, Homo sapiens, UniProt Q99759) | 10 µM | 87% |
| Mitogen-activated protein kinase kinase kinase 10 (MAP3K10, Homo sapiens, UniProt Q02779) | 10 µM | < 50% |
| Cyclin-dependent kinase 15 (CDK15, Homo sapiens, UniProt Q96Q40) | 10 µM | < 50% |

Series 3
SMILES: CC(=O)c1ccc(N2CCOCC2)cc1O
Effect on: enzyme activity
Action: inhibitor
Concentration: 0.5 µM
Baseline: control
| target | remaining activity [%] |
| --- | --- |
| SRSF protein kinase 1 (SRPK1, Homo sapiens, UniProt Q96SB4) | 90.7 |
| Tyrosine-protein kinase JAK1 (JAK1, Homo sapiens, UniProt P23458) | 104 |
| Calcium/calmodulin-dependent protein kinase type 1 (CAMK1, Homo sapiens, UniProt Q14012) | 102 |
| Serine/threonine-protein kinase Sgk2 (SGK2, Homo sapiens, UniProt Q9HBY8) | 101 |
| Protein kinase C zeta type (PRKCZ, Homo sapiens, UniProt Q05513) | 111 |
| Casein kinase I isoform delta (CSNK1D, Homo sapiens, UniProt P48730) | 100 |
| Ribosomal protein S6 kinase alpha-3 (RPS6KA3, Homo sapiens, UniProt P51812) | 101 |
| Muscle, skeletal receptor tyrosine-protein kinase (MUSK, Homo sapiens, UniProt O15146) | 93.9 |
| Vascular endothelial growth factor receptor 1 (FLT1, Homo sapiens, UniProt P17948) | 97.1 |
| Calcium/calmodulin-dependent protein kinase kinase 1 (CAMKK1, Homo sapiens, UniProt Q8N5S9) | 124 |
| Protein kinase C theta type (PRKCQ, Homo sapiens, UniProt Q04759) | 99.5 |
| Mitogen-activated protein kinase kinase kinase 20 (MAP3K20, Homo sapiens, UniProt Q9NYL2) | 97.8 |
| Serine/threonine-protein kinase PAK 1 (PAK1, Homo sapiens, UniProt Q13153) | 93.7 |
| Cyclin-dependent kinase 2, with cyclin E (CDK2, Homo sapiens, UniProt P24941) | 94.8 |
| Dual specificity protein kinase CLK2 (CLK2, Homo sapiens, UniProt P49760) | 102 |
| Insulin-like growth factor 1 receptor (IGF1R, Homo sapiens, UniProt P08069) | 106 |
| Tyrosine-protein kinase Tec (TEC, Homo sapiens, UniProt P42680) | 139 |
| Serine/threonine-protein kinase PAK 6 (PAK6, Homo sapiens, UniProt Q9NQU5) | 93.7 |
| Tyrosine-protein kinase receptor TYRO3 (TYRO3, Homo sapiens, UniProt Q06418) | 89.1 |
| Serine/threonine-protein kinase SIK2 (SIK2, Homo sapiens, UniProt Q9H0K1) | 87 |
| Dual specificity protein kinase CLK1 (CLK1, Homo sapiens, UniProt P49759) | 110 |
| Casein kinase I isoform epsilon (CSNK1E, Homo sapiens, UniProt P49674) | 96.2 |
| Ephrin type-A receptor 2 (EPHA2, Homo sapiens, UniProt P29317) | 107 |

Series 4
Structure (SMILES): O=C(Nc1cnc(Oc2ccc(F)cc2)nc1)N1CCc2ncccc2[C@@H]1c1ccc(F)cc1
Effect on: cell-free assay
Method: competition with immobilised ligand
Concentration: 1 µM
| target | remaining binding [%] |
| --- | --- |
| Ephrin type-A receptor 6 (EPHA6, Homo sapiens, UniProt Q9UF33) | 100 |
| Interleukin-1 receptor-associated kinase 1 (IRAK1, Homo sapiens, UniProt P51617) | 88 |
| Ribosomal protein S6 kinase beta-1 (RPS6KB1, Homo sapiens, UniProt P23443) | 89 |
| Ephrin type-A receptor 3 (EPHA3, Homo sapiens, UniProt P29320) | 82 |
| Serine/threonine-protein kinase pim-2 (PIM2, Homo sapiens, UniProt Q9P1W9) | 94 |
| Serine/threonine-protein kinase Nek9 (NEK9, Homo sapiens, UniProt Q8TD19) | 90 |
| Mitogen-activated protein kinase 9 (MAPK9, Homo sapiens, UniProt P45984) | 85 |
| Mitogen-activated protein kinase kinase kinase 9 (MAP3K9, Homo sapiens, UniProt P80192) | 92 |
| Serine/threonine-protein kinase PAK 4 (PAK4, Homo sapiens, UniProt O96013) | 82 |
| Serine/threonine-protein kinase NIM1 (NIM1K, Homo sapiens, UniProt Q8IY84) | 90 |
| Phosphorylase b kinase gamma catalytic chain, liver/testis isoform (PHKG2, Homo sapiens, UniProt P15735) | 96 |
| Macrophage-stimulating protein receptor (MST1R, Homo sapiens, UniProt Q04912) | 100 |
| Non-receptor tyrosine-protein kinase TYK2, JH2 (TYK2, Homo sapiens, UniProt P29597) | 100 |
| 5'-AMP-activated protein kinase catalytic subunit alpha-2 (PRKAA2, Homo sapiens, UniProt P54646) | 79 |
| Serine/threonine-protein kinase 33 (STK33, Homo sapiens, UniProt Q9BYT3) | 69 |
| Mitogen-activated protein kinase kinase kinase 2 (MAP3K2, Homo sapiens, UniProt Q9Y2U5) | 99 |
| Serine/threonine-protein kinase PAK 3 (PAK3, Homo sapiens, UniProt O75914) | 100 |
| Cyclin-dependent kinase 8 (CDK8, Homo sapiens, UniProt P49336) | 70 |
| Mitogen-activated protein kinase kinase kinase 13 (MAP3K13, Homo sapiens, UniProt O43283) | 88 |
| Tyrosine-protein kinase ABL1, non-phosphorylated (ABL1, Homo sapiens, UniProt P00519, Q252H) | 91 |
| Tyrosine-protein kinase Fyn (FYN, Homo sapiens, UniProt P06241) | 100 |
| Atypical kinase COQ8B, mitochondrial (COQ8B, Homo sapiens, UniProt Q96D53) | 100 |
| Serine/threonine-protein kinase D1 (PRKD1, Homo sapiens, UniProt Q15139) | 100 |
| Mitogen-activated protein kinase 15 (MAPK15, Homo sapiens, UniProt Q8TD08) | 93 |
| Hormonally up-regulated neu tumor-associated kinase (HUNK, Homo sapiens, UniProt P57058) | 100 |
